Measured values collected from several papers.
Every numbered part comes from another study and shows a few of its results, in no order.

Series 1 — technique: protein-binding microarray; form: double-stranded DNA, one strand shown; sample: in vitro; tested at: 2540 nM top; notes: 60-bp whole probe; with: salmon DNA 0.4 mg/ml; reference: random background probes; direction: higher = stronger binding
Target: Interferon regulatory factor 3, full length, phosphomimetic (IRF3, Homo sapiens, UniProt Q14653, residues 1-427, S386D/S396D/S398D/S402D/T404D/S405D)
Target sequence (chain): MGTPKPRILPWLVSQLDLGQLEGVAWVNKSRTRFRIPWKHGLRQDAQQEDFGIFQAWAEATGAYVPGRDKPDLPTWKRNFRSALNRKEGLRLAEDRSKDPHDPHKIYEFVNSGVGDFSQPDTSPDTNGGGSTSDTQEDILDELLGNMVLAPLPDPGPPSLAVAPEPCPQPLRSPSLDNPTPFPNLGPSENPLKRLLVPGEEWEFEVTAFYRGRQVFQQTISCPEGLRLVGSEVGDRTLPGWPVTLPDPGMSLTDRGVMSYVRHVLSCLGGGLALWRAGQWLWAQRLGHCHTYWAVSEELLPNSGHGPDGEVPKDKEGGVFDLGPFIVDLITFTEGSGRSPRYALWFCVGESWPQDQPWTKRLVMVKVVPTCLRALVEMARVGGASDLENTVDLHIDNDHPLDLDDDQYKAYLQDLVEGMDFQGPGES
For `GCCTAGCACGTGGCTCACACCTGTCATCCCGTGCTAGTCTTGATTCGCTTGACGCTGCTG`, “fitted relative affinity” read -0.687 z-score.
`GCCTAGCACTTAGTTTTCGGTTTCGGTTAGTGCTAGGTCTTGATTCGCTTGACGCTGCTG`: “fitted relative affinity” 9.44 z-score.
Under “fitted relative affinity”, `GCCTAGCACTAGAAATTTTTTTTCTAACTGTGCTAGGTCTTGATTCGCTTGACGCTGCTG` is recorded as 0.035 z-score.

Series 2 — technique: protein binding microarray; form: double-stranded DNA, one strand shown; sample: in vitro; tested at: not given; reference: not given; direction: higher = stronger binding
Target: Histone acetyltransferase KAT6A, both winged helices, GST fusion (KAT6A, Homo sapiens, UniProt Q92794, residues 1-181)
Notes: 8-mer, flanks averaged, mean of 2 arrays, mostly near background
Construct (chain): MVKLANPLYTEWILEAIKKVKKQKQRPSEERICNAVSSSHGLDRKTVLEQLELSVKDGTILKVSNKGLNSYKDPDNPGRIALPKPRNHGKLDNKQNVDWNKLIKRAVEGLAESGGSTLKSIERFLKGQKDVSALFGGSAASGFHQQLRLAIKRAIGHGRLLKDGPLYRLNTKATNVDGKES
`GCTTTGGA` gave an E-score of 0.0447.
`CGTGACGC` gave an E-score of 0.235.
With `ACCCCTAG` the E-score was -0.305.
`ACTCACCT` gave an E-score of -0.264.

Series 3 — technique: protein-binding microarray; form: hairpin DNA; sample: in vitro; tested at: not given; reference: not given; direction: higher = stronger binding
Target: Cyclic AMP-responsive element-binding protein 1, full length (CREB1, Homo sapiens, UniProt P16220, residues 1-327)
Sequence of UniProt P16220 (whole entry, looked up): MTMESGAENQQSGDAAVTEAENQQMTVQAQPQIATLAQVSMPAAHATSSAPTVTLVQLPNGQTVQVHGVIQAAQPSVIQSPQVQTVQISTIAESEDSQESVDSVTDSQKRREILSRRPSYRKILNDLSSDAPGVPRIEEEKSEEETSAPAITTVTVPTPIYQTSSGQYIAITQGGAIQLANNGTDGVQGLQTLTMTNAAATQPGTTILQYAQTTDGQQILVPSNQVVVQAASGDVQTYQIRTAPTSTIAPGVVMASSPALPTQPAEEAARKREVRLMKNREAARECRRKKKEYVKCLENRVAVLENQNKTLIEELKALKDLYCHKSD
Notes: whole hairpin DNA, median over replicate spots
`GAGGCCGACTGACGTCAGCCTCCTGGCTGACGTCAGTCGGCCTCACACTC` has a median fluorescence of 12000 a.u.
`GAGGCCGGCCGACGTCAGCCTCCTGGCTGACGTCGGCCGGCCTCACACTC (5mC at 10)` has a median fluorescence of 6290 a.u.
`GAGGCCGGATGACGTCAGCCTCCTGGCTGACGTCATCCGGCCTCACACTC (5mC at 16)` has a median fluorescence of 12400 a.u.

Mixed results
`PhoQ, residues 284 288 289 292 302 303 QWQEDG` gave a fold induction of 16.5 (PhoP, residues 12 14 15 18 19 NMSFL (Escherichia coli, UniProt P23836); Sort-seq, measured: YFP reporter; E. coli; PhoQ-PhoP variant library, with: 10 µM Mg2+; reference: high Mg2+ state, higher = stronger signaling).

A few entries again (series 1):
For `GCCTAGCACGTGGCTCACACCTGTCATCCCGTGCTAGTCTTGATTCGCTTGACGCTGCTG`, “fitted relative affinity” read -0.687 z-score.
